Results gathered from unrelated publications.
Each numbered part is a random draw from the data of one study; scales do not carry over between parts.

Sample 1 — method: RNA Bind-n-Seq; molecule type: RNA; medium: in vitro; concentration: 365 nM; reference: no-protein control; reading: higher = stronger binding
Target: RNA binding protein fox-1 homolog 2, RRM domain, GST-SBP tag (RBFOX2, Homo sapiens, UniProt O43251-10, residues 100-194)
Setting: natural RNA segment, single round, ends assumed
Construct (chain): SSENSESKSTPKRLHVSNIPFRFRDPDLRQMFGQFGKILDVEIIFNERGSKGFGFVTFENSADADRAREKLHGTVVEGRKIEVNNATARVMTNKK
For `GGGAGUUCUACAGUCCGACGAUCAGUUAUGUAUUUUUUACAUUAGUGCCAAGUAUAUAGAAGGAUGACAGCAAAAACAGUGCCUCUUUGUGCACAAUCCUUUUAAAGUAGCAUUCUUACUUGUUAGAAAUGUAUGGAAUUCUCGGGUGCCAA`, “RBNS enrichment (R)” read 0.442.
Under “RBNS enrichment (R)”, `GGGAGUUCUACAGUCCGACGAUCGUAGUUCUCAGCAAAACUUUGUCAGUUGGCACUGUUUACAAGUCUGUUAGCUGCAUAAGCUCAAUAAAAAGUUGGUCUGGGCAUUGCAUCCCCUCUGACAGACCGAUAGCUGGAAUUCUCGGGUGCCAA` is recorded as 0.579.
Under “RBNS enrichment (R)”, `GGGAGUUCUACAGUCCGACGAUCUCUUGACCCUACACUGAAGGCUGAAGGCAGAAGCCACAAGAGGCCUUGAGUGCCACCCCCAGGGAAGAACAUAAAGGGUUGCACAAUGCCACCCAUCCACUCCUUGCCAAUGGAAUUCUCGGGUGCCAA` is recorded as 0.236.
Under “RBNS enrichment (R)”, `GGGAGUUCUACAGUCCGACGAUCAAAUCAUAAUGUAUUAUUUAAAUGUUUAACAUCAUUGCAUAACAGCGUUUAUUAUACAGUGGCAGAUUUCUUUAGCUGCCACAGUAAUACUCAUUCCUUGUGUGUGUCUUUGGAAUUCUCGGGUGCCAA` is recorded as 0.265.
`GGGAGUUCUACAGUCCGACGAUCAUGCCAAGUUGGAUCCCCCGAAUGAAGCAGAUGUGGCUGUGGUGUGACCCUUGCUCCCUGCUACACAGAGCAUCGCAGGGCUGGCCUGUGUGGUUUCCAGAUGAGGGUCUUGGAAUUCUCGGGUGCCAA`: “RBNS enrichment (R)” 0.794.
Under “RBNS enrichment (R)”, `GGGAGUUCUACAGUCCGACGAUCUUACUUUUUUUAGAUCCCUGUCUCCAGAAUCUCCCCGAUGCUGUUUUCUACAUCACAGGUCUCUCCCAGGGCUCGUUUUCCAAUCUCCAUCACUAGUCCUUACAGAACAGUGGAAUUCUCGGGUGCCAA` is recorded as 0.486.
Under “RBNS enrichment (R)”, `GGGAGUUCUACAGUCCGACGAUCUUGGCAGAACAUCCGUCAGUACCUCAUGAAGGCUGGCUGCCUUUGUCUUUGAGAUAGACAUUGGAGCAGACGGACUCUGGAAAGUGCUUCUGUGGCUGUGGUCUGUCCUGUGGAAUUCUCGGGUGCCAA` is recorded as 0.502.
Under “RBNS enrichment (R)”, `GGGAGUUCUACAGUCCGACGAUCUUUUGAGACUGGAGCCAACCCUUUUGGAGAGAGGACCUGCCCACCUUUGAGAUCAGCAGGGGGCUCGGAUCCAGCCCUAAGAGACUUGGGUGGACCCCCAUGAGUCAAUGUGGAAUUCUCGGGUGCCAA` is recorded as 0.49.
`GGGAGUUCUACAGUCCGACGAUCACAGAGAUGGCGCUGCAGGGCCCAGAUGUGUGACUGGGCAUGUUUCCAGGAAAGAGGCCAUCUCUUGGGGGUUUCAGCCAUCUUACCCAGUGUCUGGACUGCUAUAUUGGUGGAAUUCUCGGGUGCCAA`: “RBNS enrichment (R)” 3.04.
Under “RBNS enrichment (R)”, `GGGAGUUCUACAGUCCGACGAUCCAGCACUCACCUGAACUGUGGCUGAUUUGGUCCCAGUCCAGCUGGGGAGGUGUUUGGCUGACAAGGAGGCAAGAGAUCCCCUCCCAGGGAACAGGAGGACUGGGCUUAGCUGGAAUUCUCGGGUGCCAA` is recorded as 0.527.
For `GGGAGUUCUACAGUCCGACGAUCACACCCUUAAGUAUUUAUAUUCUUUAAUUAUCUGACCCACAAGGAGGGACCUCGGCUUCUUGAGGCAAAAGGCACUAGUACUUAAAGUACUUUCUGUGGCGUGACCAAUCUGGAAUUCUCGGGUGCCAA`, “RBNS enrichment (R)” read 0.264.
Under “RBNS enrichment (R)”, `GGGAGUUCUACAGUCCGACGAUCUGGUCUAUUUUAACCUUGAAAGUAAAAAUGUAUAUUUUUUCACUACAAGUACAUUGAACAGUAAAAAGUGUAACAGCAAAGUAUAUAUUUGAUGCCUUCUGUCUUUUCAUUGGAAUUCUCGGGUGCCAA` is recorded as 0.476.

Sample 2 — method: protein-binding microarray; molecule type: double-stranded DNA, one strand shown; medium: in vitro; concentration: 2200 nM top; setting: 60-bp whole probe; together with: salmon DNA 0.4 mg/ml; reference: random background probes; reading: higher = stronger binding; constant ends, left off below: GCCTAGCAC … GTCTTGATTCGCTTGACGCTGCTG
Target: Interferon regulatory factor 7, full length, phosphomimetic (IRF7, Homo sapiens, UniProt Q92985, residues 1-503, S471D/S472D/S475D/S476D/S477D/S483D/S484D/S487D)
Sequence of UniProt Q92985 (whole entry, unmodified, looked up): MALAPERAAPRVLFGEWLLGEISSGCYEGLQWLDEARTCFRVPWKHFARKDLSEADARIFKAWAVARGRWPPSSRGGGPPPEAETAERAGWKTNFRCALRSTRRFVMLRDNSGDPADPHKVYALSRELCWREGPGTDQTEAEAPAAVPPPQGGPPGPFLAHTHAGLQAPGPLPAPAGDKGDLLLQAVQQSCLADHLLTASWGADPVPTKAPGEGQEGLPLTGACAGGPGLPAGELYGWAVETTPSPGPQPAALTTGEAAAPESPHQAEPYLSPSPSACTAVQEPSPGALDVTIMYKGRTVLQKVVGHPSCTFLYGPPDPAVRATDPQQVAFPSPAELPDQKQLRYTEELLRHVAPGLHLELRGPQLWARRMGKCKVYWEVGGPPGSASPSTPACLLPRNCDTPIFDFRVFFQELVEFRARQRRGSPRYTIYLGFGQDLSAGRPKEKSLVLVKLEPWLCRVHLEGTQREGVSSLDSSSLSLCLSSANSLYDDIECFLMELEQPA
`TTAGATTTCCGGACTGGATTAGTGCTA`: “fitted relative affinity” 0.282 z-score.
For `TTAGGTATCGGGACTAGGTTAGTGCTA`, “fitted relative affinity” read -0.295 z-score.
`TCTCTGCTACCCTTTGAAAGTGTGCTA` — result for “fitted relative affinity”: 1.02 z-score.
`TCATTTTTACTTCGGGTACTGTGCTAG` — result for “fitted relative affinity”: 2.34 z-score.
`TTAGGTCTCCTAATCCTTTAGTGCTAG` — result for “fitted relative affinity”: 0.501 z-score.
For `CGTATCTTCATTGTCATGTAGTGCTAG`, “fitted relative affinity” read 1.86 z-score.
`TCCATTTTCTAAATTCCCTAGTGCTAG` — result for “fitted relative affinity”: 3.52 z-score.
`TTAGGTCCCCTTATCCTTTAGTGCTAG`: “fitted relative affinity” 1.04 z-score.
`TTAGGTTTCGGGTATCGGTTGGTGCTA` — result for “fitted relative affinity”: 6.44 z-score.
Under “fitted relative affinity”, `AACGGACTGCTTTTCCTGACGTGCTAG` is recorded as 0.816 z-score.
`TTAGGTATCGATATCGGTTAGTGCTAG` — result for “fitted relative affinity”: 0.801 z-score.
For `TTAGGTCTCCTTCTCTTTTAGTGCTAG`, “fitted relative affinity” read 1.2 z-score.
For `GACGGGATCCTTTTCCTGACGTGCTAG`, “fitted relative affinity” read 0.801 z-score.
Under “fitted relative affinity”, `TGAAAACTAAGTTTATTAGAGTGCTAG` is recorded as -1.18 z-score.
Under “fitted relative affinity”, `TATTTTCCTTTAAACTTTTAGTGCTAG` is recorded as 3.1 z-score.
`GACGGTGTCGGTCTCGGGACGTGCTAG`: “fitted relative affinity” -0.588 z-score.
`GGTAGGCGGGGCCCCTGGCCGTGCTAG`: “fitted relative affinity” -1.08 z-score.
Under “fitted relative affinity”, `GACGATCTCAGACCGGAGACGTGCTAG` is recorded as -0.245 z-score.
`GACGGACTGGTTTTCGGGACGTGCTAG`: “fitted relative affinity” 1.66 z-score.

Sample 3 — method: RNAcompete; molecule type: RNA; medium: in vitro; concentration: 20 nM; setting: 7-mer, probes averaged, single round; reference: mean of 7-mers; reading: higher = stronger binding
Target: PABPC1L2, full length, GST fusion (mouse, UniProt A0ABA7IW68)
Target sequence (chain): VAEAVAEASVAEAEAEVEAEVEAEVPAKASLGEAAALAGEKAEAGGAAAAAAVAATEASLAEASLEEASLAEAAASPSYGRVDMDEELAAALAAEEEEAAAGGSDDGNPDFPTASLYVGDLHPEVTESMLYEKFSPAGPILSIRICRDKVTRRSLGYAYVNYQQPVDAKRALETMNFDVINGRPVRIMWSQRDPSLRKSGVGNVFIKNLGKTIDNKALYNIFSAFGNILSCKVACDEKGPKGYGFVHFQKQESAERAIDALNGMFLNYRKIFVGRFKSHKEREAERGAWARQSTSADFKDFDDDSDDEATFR
The 7-mer Z-score of `GGGCCAU` is reported as 0.215.
With `AAACCUG` the 7-mer Z-score was 0.562.
`UCAUAUU` gave a 7-mer Z-score of -0.197.
For `ACUCCAA`, the 7-mer Z-score was -0.0609.
With `CGUCCCG` the 7-mer Z-score was -0.409.
The 7-mer Z-score of `GUCAGUC` is reported as -0.412.
With `CUAGCCG` the 7-mer Z-score was -0.246.
`UGGAUGG` has a 7-mer Z-score of 0.0134.
With `GGUGCAA` the 7-mer Z-score was 0.349.
`GAAACCU` has a 7-mer Z-score of -0.0971.
With `UCUUGGU` the 7-mer Z-score was -0.387.
`UCUUCCC` has a 7-mer Z-score of -0.467.
With `ACCCCCA` the 7-mer Z-score was -0.371.
The 7-mer Z-score of `GGUUGCG` is reported as -0.103.
`GAAGUAG` gave a 7-mer Z-score of -0.0971.
`ACAAGGA` has a 7-mer Z-score of 0.432.
The 7-mer Z-score of `GGCGAUA` is reported as 0.256.

Sample 4 — method: universal PBM; molecule type: double-stranded DNA, one strand shown; medium: in vitro; concentration: 600 nM; reading: higher = stronger binding
Target: Sal-like protein 4, full length isoform A (SALL4, Homo sapiens, UniProt Q9UJQ4, residues 1-1053)
Sequence of UniProt Q9UJQ4 (whole entry, looked up): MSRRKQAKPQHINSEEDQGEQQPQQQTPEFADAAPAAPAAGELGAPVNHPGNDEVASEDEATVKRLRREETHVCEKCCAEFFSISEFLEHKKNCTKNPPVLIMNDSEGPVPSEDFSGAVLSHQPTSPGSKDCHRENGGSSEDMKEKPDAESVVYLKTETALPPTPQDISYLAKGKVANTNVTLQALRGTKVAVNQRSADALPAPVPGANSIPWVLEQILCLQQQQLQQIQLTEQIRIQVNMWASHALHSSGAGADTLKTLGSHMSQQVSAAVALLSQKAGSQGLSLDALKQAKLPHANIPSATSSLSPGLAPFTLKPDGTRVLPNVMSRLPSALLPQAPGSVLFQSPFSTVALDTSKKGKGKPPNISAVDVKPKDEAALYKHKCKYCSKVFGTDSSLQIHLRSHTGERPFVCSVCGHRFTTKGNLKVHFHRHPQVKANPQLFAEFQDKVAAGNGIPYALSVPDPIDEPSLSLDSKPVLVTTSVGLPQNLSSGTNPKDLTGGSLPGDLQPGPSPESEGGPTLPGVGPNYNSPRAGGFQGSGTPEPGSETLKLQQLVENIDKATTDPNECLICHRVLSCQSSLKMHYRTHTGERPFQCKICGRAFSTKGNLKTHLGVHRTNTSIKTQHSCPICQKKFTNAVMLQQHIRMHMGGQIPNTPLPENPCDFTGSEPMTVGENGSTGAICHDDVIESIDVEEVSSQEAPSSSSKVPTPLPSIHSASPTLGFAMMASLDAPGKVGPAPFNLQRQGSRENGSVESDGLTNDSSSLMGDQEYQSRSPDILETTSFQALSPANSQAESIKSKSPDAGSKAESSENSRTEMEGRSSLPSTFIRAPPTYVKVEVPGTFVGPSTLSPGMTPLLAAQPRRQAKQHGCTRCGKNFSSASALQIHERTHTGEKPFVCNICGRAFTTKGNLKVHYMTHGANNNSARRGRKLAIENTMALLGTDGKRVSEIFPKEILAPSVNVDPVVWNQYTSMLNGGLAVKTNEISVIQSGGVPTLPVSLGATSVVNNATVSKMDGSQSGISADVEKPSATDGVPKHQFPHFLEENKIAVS
Setting: 8-mer, flanks averaged, mean of replicates
`CGACCTTA` gave an E-score of 0.0673.
`CTTAAGTA` gave an E-score of 0.125.
`ATGTTATG` gave an E-score of 0.338.
`GGCTCTGA` gave an E-score of -0.0711.
`ATGCTTGG` has an E-score of 0.0782.
The E-score of `TCATTCAA` is reported as 0.198.
With `AATCAAAT` the E-score was 0.267.
`GTAGAGCA` has an E-score of -0.0628.
`CCAATACC` has an E-score of -0.102.
For `CCGATGGC`, the E-score was -0.312.
`GCTTGAAC` gave an E-score of 0.116.
With `AGTAACTC` the E-score was -0.103.
`ATAGACAG` has an E-score of 0.161.
The E-score of `ATTGCGGG` is reported as -0.000655.
`AAGTATGT` has an E-score of 0.295.
For `GTCCTCTA`, the E-score was -0.11.
`AACGTCAA` gave an E-score of 0.225.
The E-score of `AAAACGCA` is reported as -0.0385.
`CAAAGTGA` has an E-score of -0.0772.
The E-score of `CTCCCATC` is reported as 0.00344.
The E-score of `ATAATTGC` is reported as 0.363.

Sample 5 — method: Sort-seq; refers to: YFP reporter; medium: E. coli; setting: PhoQ-PhoP variant library; together with: 10 µM Mg2+; reference: high Mg2+ state; reading: higher = stronger signaling
Substance: PhoQ, residues 284 288 289 292 302 303 TASMAF
The fold induction was 10.9 (PhoP, residues 12 14 15 18 19 NYFRM (Escherichia coli, UniProt P23836)).
The fold induction was 14.4 (PhoP, residues 12 14 15 18 19 QYFSL (Escherichia coli, UniProt P23836)).
It gave 6.96 for fold induction (PhoP, residues 12 14 15 18 19 TQALL (Escherichia coli, UniProt P23836)).

Repeated from above (sample 3):
`GAAACCU` has a 7-mer Z-score of -0.0971.
With `CUAGCCG` the 7-mer Z-score was -0.246.
The 7-mer Z-score of `GGGCCAU` is reported as 0.215.
The 7-mer Z-score of `GGCGAUA` is reported as 0.256.
With `UCUUGGU` the 7-mer Z-score was -0.387.
The 7-mer Z-score of `GGUUGCG` is reported as -0.103.
The 7-mer Z-score of `GUCAGUC` is reported as -0.412.
With `CGUCCCG` the 7-mer Z-score was -0.409.
`UCAUAUU` gave a 7-mer Z-score of -0.197.
With `AAACCUG` the 7-mer Z-score was 0.562.
`UCUUCCC` has a 7-mer Z-score of -0.467.
With `ACCCCCA` the 7-mer Z-score was -0.371.
